Literature values, collected from citations in different studies.
Compare with care: the assays were run in different laboratories. Numbers after ± are the reported error.
DRD2: D(2) dopamine receptor (DRD2, Homo sapiens, UniProt P14416)
Sequence of UniProt P14416 (whole entry, looked up): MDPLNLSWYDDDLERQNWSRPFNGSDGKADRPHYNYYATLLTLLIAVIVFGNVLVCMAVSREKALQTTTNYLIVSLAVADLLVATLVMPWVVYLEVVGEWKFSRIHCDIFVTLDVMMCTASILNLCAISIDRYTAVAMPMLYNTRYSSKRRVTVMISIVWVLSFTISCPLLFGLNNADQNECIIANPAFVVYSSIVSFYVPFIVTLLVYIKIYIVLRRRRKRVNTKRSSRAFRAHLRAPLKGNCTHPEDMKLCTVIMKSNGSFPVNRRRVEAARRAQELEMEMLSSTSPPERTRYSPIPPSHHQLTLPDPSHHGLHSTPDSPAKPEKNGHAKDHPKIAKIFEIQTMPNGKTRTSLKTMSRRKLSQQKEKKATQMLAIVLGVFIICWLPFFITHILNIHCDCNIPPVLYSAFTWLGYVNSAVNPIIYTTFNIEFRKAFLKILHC
TACR1: Substance-P receptor (TACR1, Homo sapiens, UniProt P25103)
Sequence of UniProt P25103 (whole entry, looked up): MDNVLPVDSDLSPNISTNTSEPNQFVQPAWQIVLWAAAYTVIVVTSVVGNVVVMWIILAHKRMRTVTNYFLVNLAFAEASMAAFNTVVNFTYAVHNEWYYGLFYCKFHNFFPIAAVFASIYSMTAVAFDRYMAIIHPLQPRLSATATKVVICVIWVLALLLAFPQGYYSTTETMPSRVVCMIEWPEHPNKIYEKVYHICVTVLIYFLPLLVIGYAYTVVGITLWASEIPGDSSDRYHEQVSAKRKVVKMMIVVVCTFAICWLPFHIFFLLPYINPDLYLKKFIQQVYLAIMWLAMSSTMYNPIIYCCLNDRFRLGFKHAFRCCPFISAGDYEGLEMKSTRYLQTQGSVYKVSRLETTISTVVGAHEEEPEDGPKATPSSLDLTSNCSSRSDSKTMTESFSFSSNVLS
Sequence of UniProt P08172 (whole entry, looked up): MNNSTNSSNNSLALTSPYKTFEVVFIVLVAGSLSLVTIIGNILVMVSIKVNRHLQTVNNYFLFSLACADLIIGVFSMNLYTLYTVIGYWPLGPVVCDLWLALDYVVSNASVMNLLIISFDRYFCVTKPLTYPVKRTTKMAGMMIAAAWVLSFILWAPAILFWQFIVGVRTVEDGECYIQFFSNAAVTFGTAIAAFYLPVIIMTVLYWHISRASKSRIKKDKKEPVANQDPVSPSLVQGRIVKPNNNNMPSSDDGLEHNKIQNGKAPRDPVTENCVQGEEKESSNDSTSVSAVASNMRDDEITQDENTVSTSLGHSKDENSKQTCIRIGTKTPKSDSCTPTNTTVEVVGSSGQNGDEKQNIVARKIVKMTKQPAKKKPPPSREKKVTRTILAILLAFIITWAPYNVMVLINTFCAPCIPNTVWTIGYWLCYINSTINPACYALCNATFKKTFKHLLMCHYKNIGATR
Sequence of UniProt P35348 (whole entry, looked up): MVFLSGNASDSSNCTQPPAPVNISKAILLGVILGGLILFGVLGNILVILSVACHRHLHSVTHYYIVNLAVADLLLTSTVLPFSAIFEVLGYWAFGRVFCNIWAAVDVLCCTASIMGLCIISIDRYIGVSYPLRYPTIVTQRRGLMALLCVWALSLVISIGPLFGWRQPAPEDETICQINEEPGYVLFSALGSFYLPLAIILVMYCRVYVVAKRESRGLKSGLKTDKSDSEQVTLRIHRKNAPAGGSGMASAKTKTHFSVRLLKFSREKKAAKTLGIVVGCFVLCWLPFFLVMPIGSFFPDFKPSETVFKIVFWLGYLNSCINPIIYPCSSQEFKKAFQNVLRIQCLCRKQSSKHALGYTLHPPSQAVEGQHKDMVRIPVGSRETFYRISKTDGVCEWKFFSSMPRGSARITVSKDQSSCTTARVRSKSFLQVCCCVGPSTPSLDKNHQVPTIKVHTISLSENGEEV
Sequence of UniProt P04757 (whole entry, looked up): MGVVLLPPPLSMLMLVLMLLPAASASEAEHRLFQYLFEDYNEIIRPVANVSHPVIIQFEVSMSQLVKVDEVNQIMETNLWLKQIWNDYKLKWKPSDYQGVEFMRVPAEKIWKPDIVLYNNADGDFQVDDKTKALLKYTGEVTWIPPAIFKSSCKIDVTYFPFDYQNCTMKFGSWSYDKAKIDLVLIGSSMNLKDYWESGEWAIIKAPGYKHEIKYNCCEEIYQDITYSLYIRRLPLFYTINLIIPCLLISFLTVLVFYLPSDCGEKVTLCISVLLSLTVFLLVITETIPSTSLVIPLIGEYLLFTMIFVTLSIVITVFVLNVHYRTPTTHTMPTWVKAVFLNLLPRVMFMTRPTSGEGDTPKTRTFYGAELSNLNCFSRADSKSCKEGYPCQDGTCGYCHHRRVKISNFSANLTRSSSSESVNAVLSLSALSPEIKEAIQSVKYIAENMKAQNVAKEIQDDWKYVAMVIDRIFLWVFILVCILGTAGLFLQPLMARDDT
Sequence of UniProt P12392 (whole entry, looked up): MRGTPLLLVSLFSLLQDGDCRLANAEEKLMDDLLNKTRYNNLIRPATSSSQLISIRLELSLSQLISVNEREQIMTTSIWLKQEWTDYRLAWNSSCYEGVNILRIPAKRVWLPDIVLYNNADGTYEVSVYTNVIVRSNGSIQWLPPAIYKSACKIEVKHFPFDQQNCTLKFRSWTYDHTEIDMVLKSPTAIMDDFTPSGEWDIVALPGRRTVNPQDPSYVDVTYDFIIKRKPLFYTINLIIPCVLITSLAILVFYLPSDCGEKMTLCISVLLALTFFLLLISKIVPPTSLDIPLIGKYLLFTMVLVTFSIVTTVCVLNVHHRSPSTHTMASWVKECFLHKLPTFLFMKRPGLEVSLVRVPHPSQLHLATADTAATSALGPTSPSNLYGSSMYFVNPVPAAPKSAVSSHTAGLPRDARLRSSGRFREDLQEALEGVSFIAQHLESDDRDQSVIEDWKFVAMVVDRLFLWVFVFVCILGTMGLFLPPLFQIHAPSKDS
Sequence of UniProt O00750 (whole entry, looked up): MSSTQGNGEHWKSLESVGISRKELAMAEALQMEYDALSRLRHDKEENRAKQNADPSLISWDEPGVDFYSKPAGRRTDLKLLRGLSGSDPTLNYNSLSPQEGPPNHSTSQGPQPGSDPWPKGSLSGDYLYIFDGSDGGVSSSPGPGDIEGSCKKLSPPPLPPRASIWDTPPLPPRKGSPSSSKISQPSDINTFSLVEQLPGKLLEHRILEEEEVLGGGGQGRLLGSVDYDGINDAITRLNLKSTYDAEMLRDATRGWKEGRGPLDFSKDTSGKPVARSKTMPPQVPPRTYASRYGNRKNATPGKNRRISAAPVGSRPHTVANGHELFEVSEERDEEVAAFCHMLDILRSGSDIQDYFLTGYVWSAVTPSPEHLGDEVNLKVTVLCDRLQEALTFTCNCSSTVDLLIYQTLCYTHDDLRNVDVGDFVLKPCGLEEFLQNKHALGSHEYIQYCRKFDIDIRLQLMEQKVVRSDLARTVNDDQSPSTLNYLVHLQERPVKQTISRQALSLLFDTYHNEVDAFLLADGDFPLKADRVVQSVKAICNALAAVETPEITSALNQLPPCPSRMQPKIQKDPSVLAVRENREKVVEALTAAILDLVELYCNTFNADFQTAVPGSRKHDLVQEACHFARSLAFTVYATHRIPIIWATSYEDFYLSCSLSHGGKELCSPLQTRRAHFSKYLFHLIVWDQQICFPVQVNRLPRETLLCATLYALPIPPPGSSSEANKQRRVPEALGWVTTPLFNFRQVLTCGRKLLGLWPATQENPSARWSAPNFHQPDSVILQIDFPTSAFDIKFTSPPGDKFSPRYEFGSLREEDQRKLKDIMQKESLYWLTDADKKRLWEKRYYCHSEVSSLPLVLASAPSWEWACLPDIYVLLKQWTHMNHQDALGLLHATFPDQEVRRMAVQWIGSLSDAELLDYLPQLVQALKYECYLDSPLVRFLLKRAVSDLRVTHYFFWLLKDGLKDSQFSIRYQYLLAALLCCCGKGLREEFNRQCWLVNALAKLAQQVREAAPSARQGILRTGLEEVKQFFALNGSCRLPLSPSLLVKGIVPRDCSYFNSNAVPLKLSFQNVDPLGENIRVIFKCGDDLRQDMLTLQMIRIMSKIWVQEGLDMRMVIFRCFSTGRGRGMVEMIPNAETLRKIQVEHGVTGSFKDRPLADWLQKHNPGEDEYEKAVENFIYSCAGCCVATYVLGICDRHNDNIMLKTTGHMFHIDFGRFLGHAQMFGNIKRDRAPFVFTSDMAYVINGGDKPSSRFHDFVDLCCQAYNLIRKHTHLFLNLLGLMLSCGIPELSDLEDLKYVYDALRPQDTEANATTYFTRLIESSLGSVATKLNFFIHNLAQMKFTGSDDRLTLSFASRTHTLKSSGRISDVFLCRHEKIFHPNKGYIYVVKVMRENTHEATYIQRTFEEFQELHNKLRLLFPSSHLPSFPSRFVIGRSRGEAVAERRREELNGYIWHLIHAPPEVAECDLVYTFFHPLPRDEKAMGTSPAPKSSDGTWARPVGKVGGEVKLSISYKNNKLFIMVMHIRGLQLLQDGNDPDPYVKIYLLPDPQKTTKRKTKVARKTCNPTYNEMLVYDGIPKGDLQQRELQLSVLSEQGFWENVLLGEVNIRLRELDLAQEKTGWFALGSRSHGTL
Sequence of UniProt Q08638 (whole entry, looked up): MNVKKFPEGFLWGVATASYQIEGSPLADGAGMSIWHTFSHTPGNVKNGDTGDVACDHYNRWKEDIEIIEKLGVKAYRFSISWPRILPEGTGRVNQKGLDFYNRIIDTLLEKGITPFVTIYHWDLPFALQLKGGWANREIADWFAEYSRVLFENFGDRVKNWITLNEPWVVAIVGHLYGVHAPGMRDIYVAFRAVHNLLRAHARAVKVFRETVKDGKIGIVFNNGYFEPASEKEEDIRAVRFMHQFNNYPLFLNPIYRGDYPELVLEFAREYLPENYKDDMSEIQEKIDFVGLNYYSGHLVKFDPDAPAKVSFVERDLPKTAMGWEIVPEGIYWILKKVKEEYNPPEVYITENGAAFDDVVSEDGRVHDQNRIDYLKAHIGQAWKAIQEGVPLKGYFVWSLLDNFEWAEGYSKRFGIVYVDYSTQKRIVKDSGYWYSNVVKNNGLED

Compound	target	assay	setting	how to read	measurement	result
O=C(CCCN1CCC2(CC1)C(=O)NCN2c1ccccc1)c1ccc(F)cc1	DRD2	binding	–	–	Hill coefficient	1
O=C(O)C1=CCCN(CCON=C(c2ccccc2)c2ccccc2)C1	Slc6a1 (Rattus norvegicus, UniProt P23978)	–	–	–	Hill coefficient	1.1
Nc1ccn([C@@H]2O[C@H](CO)[C@@H](O)[C@H]2O)c(=O)n1	uncharacterized protein (Trichomonas vaginalis, UniProt A2EYV3)	substrate	–	–	kcat/Km	inactive
CN1CCc2[nH]c3ccccc3c2CC1.O=C(O)/C=C/C(=O)O	Neuronal acetylcholine receptor; alpha3/beta4 (Rattus norvegicus, UniProt P04757+P12392)	inhibitor	added: 100 µM acetylcholine	–	Hill coefficient	1.8 ± 0.2
CC1=C(C)C(=O)c2ccccc2C1=O	Reaction center protein M chain, QA site (pufM, Cereibacter sphaeroides, UniProt P0C0Y9)	P+HA− charge separation, delayed fluorescence	–	–	free energy change	-500 meV
Nc1ccccc1C(=O)C[C@H](N)C(=O)O	kynureninase (Pseudomonas fluorescens)	substrate	–	–	Km	25 µM
O=[N+]([O-])c1ccc(O[C@@H]2O[C@H](CO)[C@@H](O)[C@H](O)[C@H]2O)c([N+](=O)[O-])c1	bglA (Thermotoga maritima, UniProt Q08638)	substrate	–	–	Km	300 µM
CN1C[C@H](CNC(=O)OCc2ccccc2)C[C@@H]2c3cccc4c3c(cn4C)C[C@H]21	HTR1A (Homo sapiens, UniProt P08908)	–	–	–	Hill coefficient	0.9
Nc1ncnc2c1ncn2[C@@H]1O[C@H](CO)[C@@H](O)[C@H]1O	Adenosine/guanosine nucleoside ribohydrolase (Trichomonas vaginalis, UniProt A2EYV3)	substrate, 1H NMR	–	–	Km	54 µM
NC(N)=NCCC[C@H](NC(=O)[C@H](Cc1ccccc1)NC(=O)[C@@H]1CCCN1C(=O)[C@H](CO)NC(=O)[C@H](Cc1ccccc1)NC(=O)CNC(=O)[C@@H]1CCCN1C(=O)[C@@H]1CCCN1C(=O)[C@@H](N)CCCN=C(N)N)C(=O)O	BDKRB2 (Homo sapiens, UniProt P30411)	–	historical reference value	–	Hill coefficient	1
Nc1c(Br)cccc1C(=O)C[C@H](N)C(=O)O	kynureninase (Pseudomonas fluorescens)	substrate	–	–	Km	2000 µM
O=C(CCCN1CCC2(CC1)C(=O)NCN2c1ccccc1)c1ccc(F)cc1	DRD2	–	–	–	Hill coefficient	1
Ic1ccccc1CN[C@@H]1C2CCN(CC2)[C@@H]1C(c1ccccc1)c1ccccc1 (racemic)	TACR1	–	historical reference value	–	Hill coefficient	1
O=[N+]([O-])c1ccc(OP(=O)(O)O)cc1	alkaline phosphatase	substrate	pH 8, 37 °C	–	Km	7.62 µM
Nc1ncc(-c2nc(N3CCOCC3)nc(N3CCOCC3)n2)c(C(F)F)n1	PIK3C2B (Homo sapiens, UniProt O00750)	KinomeScan competition binding	10 µM	–	remaining binding	0.75%
Nc1ccccc1[C@H](O)C[C@H](N)C(=O)O	kynureninase (Pseudomonas fluorescens)	substrate	–	–	kcat	0.6 s⁻¹
C[N+]1(C)CCC(OC(=O)C(c2ccccc2)c2ccccc2)CC1.[I-]	CHRM2 (Homo sapiens, UniProt P08172)	–	–	–	Hill coefficient	1
COc1c(Br)c2c3c(c1OC)-c1cc4c(cc1C[C@@H]3N(C)CC2)OCO4	ADRA1A (Homo sapiens, UniProt P35348)	antagonist	–	–	Ke	> 10 µM
Nc1ncnc2c1ncn2[C@@H]1O[C@H](COP(=O)(O)OP(=O)(O)OP(=O)(O)O)[C@@H](O)[C@H]1O	dnaK (Escherichia coli, UniProt P0A6Y8, E213C/T22C)	–	200 nM, 35 °C	–	rate	≤ 4 s⁻¹
Nc1ccc(Br)cc1C(=O)C[C@H](N)C(=O)O	kynureninase (Pseudomonas fluorescens)	substrate	–	–	Km	12 µM
CC(=O)N[C@@H](CSC(Cl)=CCl)C(=O)O	N-acyl-aromatic-L-amino acid amidohydrolase (carboxylate-forming) (Acy3, Mus musculus, UniProt Q91XE4)	substrate	without Co2+	–	kcat	0.28 s⁻¹
CC(C)(O/N=C(\C(=O)N[C@@H]1C(=O)N2C(C(=O)[O-])=C(C[N+]3(CCNC(=O)c4ccc(O)c(O)c4Cl)CCCC3)CS[C@H]12)c1csc(N)n1)C(=O)O	KPC-3	hydrolysis by enzyme, substrate	–	–	Km	> 500 µM
Ic1ccccc1CN[C@@H]1C2CCN(CC2)[C@@H]1C(c1ccccc1)c1ccccc1 (racemic)	TACR1	–	–	–	Hill coefficient	1
N=C(N)NCCNC(=O)C1(Nc2ccccc2)CCN(Cc2ccccc2)CC1	neuropeptide FF receptors	–	–	relative to: NPFFR1 over NPFFR2	selectivity ratio	17 fold

Some of these lines once more:
Compound	target	assay	setting	how to read	measurement	result
O=[N+]([O-])c1ccc(OP(=O)(O)O)cc1	alkaline phosphatase	substrate	pH 8, 37 °C	–	Km	7.62 µM
